{"data": "Results of several laboratories", "note": "Lines come from different studies, so protocols differ."}
{"SMILES": "CN(Cc1ccccc1)C(=O)CN1CCN(CC(=O)[O-])CCN(CC(=O)N(C)Cc2ccccc2)CC1.[18F-].[Sc+3]", "species": "mouse", "medium": "liver", "route": "intravenous", "time": "1 h", "tracer uptake [%ID/g]": 0.62}
{"SMILES": "CC(=O)N([O-])CCCCCNC(=O)CCC(=O)N([O-])CCCCCNC(=O)CCC(=O)N([O-])CCCCCN.[89Zr+4]", "species": "mouse", "medium": "brain", "time": "1 h", "tracer uptake [%ID/g]": 0.04}
{"SMILES": "O=C([O-])CN1CCN(CC(=O)[O-])CCN(Cc2cccc(C(=O)[O-])n2)CC1.[177Lu+3]", "species": "mouse", "medium": "kidney", "route": "intravenous", "time": "1 h", "tracer uptake [%ID/g]": 7.14}
{"SMILES": "COc1ccc2c(c1)C(C)(C)C(/C=C/C1=C(Oc3ccc(C(=O)NCCCCOc4cc(CN(Cc5ccccn5)Cc5ccccn5)cc(CN(Cc5ccccn5)Cc5ccccn5)c4)cc3)C(=C/C=C3/N(CCCCS(=O)(=O)[O-])c4ccc(OC)cc4C3(C)C)CCC1)=[N+]2CCCCS(=O)(=O)[O-].O=[N+]([O-])[O-].O=[N+]([O-])[O-].[99Tc+].[C-]#[O+].[C-]#[O+].[C-]#[O+].[Zn+2]", "species": "mouse", "medium": "pancreas", "time": "12 h", "tracer uptake [%ID/g]": 0.72}
{"SMILES": "[123I]c1ccc2nc(-c3ccc(-n4ccnn4)nc3)cn2c1", "species": "male Wistar rat", "medium": "kidney", "route": "intravenous", "dose": "4 MBq", "time": "5 min", "tracer uptake [%ID/g]": 2.29}
{"SMILES": "CN([O-])C(=O)CN1CCN(CC(=O)N(C)[O-])CCN(Cc2ccccn2)CC1.[89Zr+4]", "species": "mouse", "medium": "muscle", "route": "intravenous", "time": "4 h", "tracer uptake [%ID/g]": 0.69}
{"SMILES": "CN(O)C(=O)CCC(=O)NCCCN(CCCCN(CCCNC(=O)CCC(=O)N(C)O)C(=O)CCC(=O)N(C)O)C(=O)CCC(=O)N(C)O.[89Zr]", "species": "mouse", "medium": "spleen", "time": "4 h", "tracer uptake [%ID/g]": 0.05}
{"SMILES": "CC(C(=O)O)n1nc(Cn2cc3cc(OCC[18F])c(Cl)cc3n2)c2ccccc2c1=O (racemic)", "species": "rat", "medium": "muscle", "time": "5 min", "tracer uptake [%ID/g]": 0.06}
{"SMILES": "CN(Cc1ccccc1)C(=O)CN1CCN(CC(=O)[O-])CCN(CC(=O)[O-])CC1.[18F-].[Sc+3]", "species": "mouse", "medium": "kidney", "route": "intravenous", "time": "1 h", "tracer uptake [%ID/g]": 1.9}
{"note": "Some of these lines once more:"}
{"SMILES": "COc1ccc2c(c1)C(C)(C)C(/C=C/C1=C(Oc3ccc(C(=O)NCCCCOc4cc(CN(Cc5ccccn5)Cc5ccccn5)cc(CN(Cc5ccccn5)Cc5ccccn5)c4)cc3)C(=C/C=C3/N(CCCCS(=O)(=O)[O-])c4ccc(OC)cc4C3(C)C)CCC1)=[N+]2CCCCS(=O)(=O)[O-].O=[N+]([O-])[O-].O=[N+]([O-])[O-].[99Tc+].[C-]#[O+].[C-]#[O+].[C-]#[O+].[Zn+2]", "species": "mouse", "medium": "pancreas", "time": "12 h", "tracer uptake [%ID/g]": 0.72}
